Values quoted from earlier work as cited in several papers.
Each numbered part shows a few of the values that one paper quotes. Converted amounts (≈) assume the structure as drawn.

Set 1
Organism: Plasmodium falciparum
Concentration: concentration not given
SMILES	activity
CCCCc1oc2ccccc2c1C(=O)c1cc(I)c(OCCN(CC)CC)c(I)c1	active
COc1ccccc1N1CCN(CCCNc2cc(=O)n(C)c(=O)n2C)CC1.Cl	active
O=C(CCNNC(=O)c1ccncc1)NCc1ccccc1	active
O=C1CN(/N=C/c2ccc(-c3ccc([N+](=O)[O-])cc3)o2)C(O)=N1	active
Clc1ccc2c(c1)C(N1CCNCC1)=Nc1ccccc1O2	active
C[C@H]1[C@H](OC(=O)CCC(=O)O)O[C@@H]2O[C@@]3(C)CC[C@H]4[C@H](C)CC[C@@H]1[C@@]24OO3	active
O=C(c1ccc(OCCN2CCCCC2)cc1)c1c(-c2ccc(O)cc2)sc2cc(O)ccc12	active
CC(CN1c2ccccc2Sc2ccccc21)N(C)C.Cl (stereo not drawn)	active
NS(=O)(=O)c1cc(C(=O)O)c(NCc2ccco2)cc1Cl	active
CNCCC(Oc1ccc(C(F)(F)F)cc1)c1ccccc1.Cl (stereo not drawn)	active
Oc1c(Cl)cc(Cl)c2cccnc12	active
COc1ccc([C@@H]2Sc3ccccc3N(CCN(C)C)C(=O)[C@@H]2OC(C)=O)cc1	active
CN1CCC(=C2c3ccccc3C=Cc3ccccc32)CC1	active
CN(C)CCC(c1ccc(Cl)cc1)c1ccccn1 (stereo not drawn)	active
CCOC(=O)C1=C(C)NC(C)=C(C(=O)OC)C1c1cccc(Cl)c1Cl (stereo not drawn)	active
CN1CCN(C2=Nc3ccccc3Oc3ccc(Cl)cc32)CC1	active

Set 2
Target: dopamine transporter
SMILES	IC50
CC(C)(C)NC(=O)[C@@H]1CN(Cc2cccnc2)CCN1C[C@@H](O)C[C@@H](Cc1ccccc1)C(=O)N[C@H]1c2ccccc2C[C@H]1O	> 10 µM
O=C1CCc2cc(OCCCCc3nnnn3C3CCCCC3)ccc2N1	> 10 µM
CN(Cc1cnc2nc(N)nc(N)c2n1)c1ccc(C(=O)N[C@@H](CCC(=O)O)C(=O)O)cc1	> 10 µM

Set 3
SMILES: CC(C)(O)c1cncc(-c2nc3ccc(F)cc3n2C2CC2)c1
target	read-out	technique	IC50
ADRB1	–	radioligand binding	9.62 µM
CYP11B2 (human)	cellular activity	–	0.0023 µM
ADRA2B	–	radioligand binding	4.7 µM

Single results of other studies
SMILES	target or system	test	test system	setting	scale	quantity	result
CCNS(=O)(=O)c1ccc(OC)cc1C1(O)CCN(Cc2cccc(Oc3ccccc3OC)c2)CC1	human CCR8 F123A mutant (TM3)	IP accumulation, agonist	–	–	–	EC50	0.012 µM
O=C(NC[C@H]1CN(c2ccc(N3CCOCC3=O)cc2)C(=O)O1)c1ccc(Cl)s1	–	–	FaSSIF	literature value	–	solubility	9.9 µg/mL (≈ 22.7 µM)
CO[C@]1(C(=O)N[C@@H](C)c2ccc(-n3cc(F)cn3)nc2)CC[C@H](c2nc(C)cc(Nc3cc(C)[nH]n3)n2)CC1	–	–	human	dose not given	reference: dose	cumulative radioactivity recovery	78.6%
COc1ccccc1Oc1cccc(CN2CCC(NC(=O)C(CCN3CCCC3)c3ccccc3)CC2)c1 (stereo not drawn)	human CCR8 W251Q mutant (TM6)	IP accumulation, agonist	–	–	–	EC50	0.01 µM
CC(F)(F)c1cc(F)ccc1-c1sc2cc(O)ccc2c1Oc1ccc(/C=C/C(=O)O)cc1	–	–	mouse, rat, dog	range across species	–	oral bioavailability	6 to 13%
CCS(=O)(=O)N1CC(CC#N)(n2cc(-c3ncnc4[nH]ccc34)cn2)C1	–	–	rheumatoid arthritis patients	4 mg	–	Cavg,ss	19.9 ng/mL
CN(C)C(=O)c1cc2cnc(Nc3ccc(N4CCNCC4)cn3)nc2n1C1CCCC1	–	item: nausea	advanced solid tumour or lymphoma patients	dose not given, continuous dosing	reference: patients	adverse event incidence	63.2%
NC[C@H]1O[C@H](O[C@H]2[C@H](O)[C@@H](O[C@H]3O[C@H](CO)[C@@H](O)[C@H](N)[C@H]3O)[C@H](N)C[C@@H]2N)[C@H](N)C[C@@H]1O	–	–	plasma	–	–	plasma fraction unbound	1
C[C@@H]1COCCN1c1cc(C2([S@](C)(=N)=O)CC2)nc(-c2cc[nH]c3nccc2-3)n1	–	–	mouse cancer model	–	–	half-life	≤ 2.17 h
C[C@H](Cn1cnc2c(N)ncnc21)OCP(=O)(O)O	–	–	human	–	–	half-life	17 h
Cc1cn(-c2cc(NC(=O)c3ccc(C)c(Nc4nccc(-c5cccnc5)n4)c3)cc(C(F)(F)F)c2)cn1	–	–	FaSSIF	literature value	–	solubility	0.35 µg/mL (≈ 0.662 µM)
